Experimental data pooled from the literature.
Each line is one published result; not all experiments were run side by side. Numbers after ± are the reported error.

`CCCC[C@H](NC(=O)CNC(=O)CNC(=O)CN1CCN(CC(=O)O)CCN(CC(=O)O)CCN(CC(=O)O)CC1)C(=O)N[C@H]1CC(=O)NCCCC[C@@H](C(N)=O)NC(=O)[C@H](Cc2c[nH]c3ccccc23)NC(=O)[C@H](CCCNC(=N)N)NC(=O)[C@@H](Cc2ccccc2)NC(=O)[C@H](Cc2c[nH]cn2)NC1=O` [gallium-67 labelled] has a tissue uptake of 0.06 ± 0.03 %ID/g (female C57 mice, B16/F1 melanoma, brain; intravenous, 0.037 MBq, 24 h).
`O=C([O-])CN1CCN(CC(=O)[O-])CCN(CC(=O)[O-])CCN(CC(=O)[O-])CC1.[64Cu+2]` has a tissue uptake of 1.53 %ID/g (healthy athymic nude mice, heart; intravenous, 15 min).
For `CN1C(=O)[C@@H](Cc2ccc(O)c(I)c2)NC(=O)CNC(=O)[C@H](Cc2ccc3ccccc3c2)NC(=O)[C@H](CCCNC(=N)N)NC(=O)[C@H]1CCCNC(=O)c1ccc(CNC(=O)CN2CCN(CC(=O)O)CCN(CC(=O)O)CCN(CC(=O)O)CC2)cc1` [lutetium-177 labelled], the tissue uptake was 0.007 ± 0.002 %ID/g (refers to: 177Lu radioactivity; female CB-17 SCID mice, Daudi xenograft, brain; intravenous, 0.16 nmol per mouse, 48 h).
`CCCC[C@H](NC(=O)CN1CCC(NC(=O)CN2CCN(CC(=O)O)CCN(CC(=O)O)CCN(CC(=O)O)CC2)CC1)C(=O)N[C@H]1CC(=O)NCCCC[C@@H](C(N)=O)NC(=O)[C@H](Cc2c[nH]c3ccccc23)NC(=O)[C@H](CCCNC(=N)N)NC(=O)[C@@H](Cc2ccccc2)NC(=O)[C@H](Cc2c[nH]cn2)NC1=O` [gallium-68 labelled] has a tissue uptake of 0.3 ± 0.1 %ID/g (C57BL/6J mice male B16-F10 tumour, spleen; 1 h post injection, unblocked).
The tissue uptake of `NC12CNCCNCC(NCc3ccc(CNC(=O)CCCC(=O)NCc4ccc(-c5nncnn5)cc4)cc3)(CNCCNC1)CNCCNC2.[64Cu+2]` is reported as 5.2 ± 1.4 %ID/g (athymic nude mice SW1222 xenograft, tumor; 4 h post injection, 48 h accumulation interval, added: huA33-TCO pretargeting).
With `CCCC[C@@H]1NC(=O)[C@@H](NC(=O)[C@H](CCC(=O)O)NC(=O)CNC(=O)CN2CCN(CC(=O)O)CCN(CC(=O)O)CCN(CC(=O)O)CC2)CCCCNC(=O)C[C@@H](C(N)=O)NC(=O)[C@H](C(C)C)NC(=O)[C@@H]2CCCN2C(=O)[C@H](CCCNC(=N)N)NC(=O)CNC(=O)[C@H](Cc2c[nH]c3ccccc23)NC(=O)[C@H](CCCNC(=N)N)NC(=O)[C@@H](Cc2ccccc2)NC(=O)[C@H](Cc2c[nH]cn2)NC(=O)[C@H](CCC(=O)O)NC1=O` [gallium-67 labelled] the tissue uptake was 0.42 ± 0.01 %ID/g (C57 mice, B16/F10 lung metastatic melanoma, liver; intravenous, 0.037 MBq, 2 h).
With `O=C([O-])CN1CCN(CC(=O)[O-])CCN(CC(=O)NCCc2ccc3c(c2)C2C=CCC2C(c2cc4c(cc2Br)OCO4)N3)CCN(CC(=O)[O-])CC1.[111In+3]` (centres unmarked) the tissue uptake was 0.15 ± 0.05 %ID/g (mice with Hec50 tumour xenograft, urinary bladder; 2 h).
`O=C([O-])c1cccc(CN(CCN(Cc2cn(Cc3ccccc3)nn2)Cc2cccc(C(=O)[O-])n2)Cc2cn(Cc3ccccc3)nn2)n1.[64Cu+2]` gave a tissue uptake of 1.3 %ID/g (nude athymic mice, healthy, femur; intravenous, 1 h, 64Cu label).

Some of these lines once more:
For `CN1C(=O)[C@@H](Cc2ccc(O)c(I)c2)NC(=O)CNC(=O)[C@H](Cc2ccc3ccccc3c2)NC(=O)[C@H](CCCNC(=N)N)NC(=O)[C@H]1CCCNC(=O)c1ccc(CNC(=O)CN2CCN(CC(=O)O)CCN(CC(=O)O)CCN(CC(=O)O)CC2)cc1` [lutetium-177 labelled], the tissue uptake was 0.007 ± 0.002 %ID/g (refers to: 177Lu radioactivity; female CB-17 SCID mice, Daudi xenograft, brain; intravenous, 0.16 nmol per mouse, 48 h).
